# Results pooled from the literature.
# Every numbered part comes from another study and shows a few of its results, in no order. Changes are numbered by the printed parent chain.

# Sample 1
# Target: Histone acetyltransferase KAT6A, both winged helices, GST fusion (KAT6A, Homo sapiens, UniProt Q92794, residues 1-181)
# Method: protein binding microarray
# Molecule type: double-stranded DNA, one strand shown
# Matrix: in vitro
# Concentration: not given
# Setting: 8-mer, flanks averaged, mean of 2 arrays, mostly near background
# Relative to: not given
# Reading: higher = stronger binding
# Target sequence (chain): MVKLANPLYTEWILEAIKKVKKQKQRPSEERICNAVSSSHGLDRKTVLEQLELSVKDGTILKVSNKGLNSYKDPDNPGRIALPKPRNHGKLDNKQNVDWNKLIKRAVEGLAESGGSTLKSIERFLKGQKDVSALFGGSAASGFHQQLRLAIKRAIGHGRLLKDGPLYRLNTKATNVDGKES
Oligonucleotide,E-score
CGGGCCTA,0.12
ACCAGTAC,-0.075
ATCGTTTG,-0.0204
ACCCTTTA,-0.0628
ACTATGTC,-0.059
ACAAATAA,-0.0326
AGCTCGGG,0.00775
GTGTACAA,0.0705
CCCCGCAG,0.148
GTCGCGAA,0.216
ACGCACAA,0.0671
GGGCATTA,-0.158
ACTAGAAA,-0.0214
CTTGTCAC,-0.0178
CACATATC,-0.128
TCTGAGAA,-0.173
GTCAGTCA,-0.0266
CGCAGATC,0.126
ACATACCA,-0.0488
AGTTTCTG,-0.103
CGGGAGAG,0.0979
CCGCGGCG,0.395
ACGGTCCG,0.275
GTTTAACA,-0.108

# Sample 2
# Target: Prothrombin, mature alpha-thrombin (F2, Homo sapiens, UniProt P00734)
# Method: aptamer microarray, sandwich
# Molecule type: DNA with 2'F-ANA
# Matrix: in vitro
# Concentration: 200 nM
# Setting: whole 15-mer aptamer, many near background
# Together with: Cy3 exosite-II aptamer, 400 nM
# Reading: higher = stronger binding
# Oligonucleotide: GGTTGGTGTGGTTGG
Modification,mean fluorescence intensity [a.u.]
2'F-ANA at 2 4 6 8 10 11 12,180
2'F-ANA at 1 2 4 5 7 9 12 14 15,62.1
2'F-ANA at 1 6 12 14 15,70.5
2'F-ANA at 1 2 3 4 5 7 8 9 10 11 14,59.4
2'F-ANA at 1 2 4 8 10 11 13 15,71.2
2'F-ANA at 1 2 6 8 10 11 13 14 15,53.5
2'F-ANA at 5 7 9 10 11 12,53.9
2'F-ANA at 1 4 5 8 10 11 13 14,45.6
2'F-ANA at 2 9 10 13 14 15,78.5
2'F-ANA at 1 5 8 9 10 12 13 15,46.9
2'F-ANA at 3 4 5 6 8 9 11 13 15,73.6
2'F-ANA at 1 2 3 7 9 11 15,179
2'F-ANA at 1 4 5 6 7 8 9 14,54.8
2'F-ANA at 2 4 6 7 9 10 12 13 14 15,65.9
2'F-ANA at 1 3 8 9 10 11,82.7
2'F-ANA at 2 3 4 7 8 9 12,1010
2'F-ANA at 1 2 3 4 6 8 9 12 13,247
2'F-ANA at 3 6 9 11 12,1010
2'F-ANA at 2 3 6 10 11 13 14,234
2'F-ANA at 2 4 5 7 10 11 12 13 14 15,53.4
2'F-ANA at 8 10 13 14 15,119
2'F-ANA at 2 3 4 5 8 9 10 11,50.9
2'F-ANA at 1 4 5 11 12,80.2
2'F-ANA at 1 2 3 4 6 8 10 12 13 15,63.8
2'F-ANA at 2 3 5 7 9 10 11 12 14 15,51.4

# Sample 3
# Target: CCNB2, cyclin fold, Cln2 fusion (human)
# Method: yeast growth competition, sequencing
# Matrix: yeast
# Setting: weak parent motif
# Relative to: not given
# Reading: higher = stronger binding
# Starting sequence: PLK5 docking peptide (human); IFRKVGQRLLTQC
Variant,normalised enrichment score
V5A,0.0334
T11A,0.732
G6A,0.542
Q12A,1.04
F2A,0.465
C13A,0.657
I1A,0.208

# Sample 4
# Target: RING finger protein unkempt homolog, zinc fingers 1-6, GST-SBP tag (UNK, Homo sapiens, UniProt Q9C0B0, residues 30-357)
# Method: RNA Bind-n-Seq
# Molecule type: RNA
# Matrix: in vitro
# Concentration: not given
# Setting: RNA with constant flanks, human and mouse sites, ends assumed
# Relative to: input RNA pool
# Reading: higher = stronger binding
# Shared flanks, not repeated: GGGAGUUCUACAGUCCGACGAUC … CAACAGAGGAUUGAGCAUCA
# Residues (chain): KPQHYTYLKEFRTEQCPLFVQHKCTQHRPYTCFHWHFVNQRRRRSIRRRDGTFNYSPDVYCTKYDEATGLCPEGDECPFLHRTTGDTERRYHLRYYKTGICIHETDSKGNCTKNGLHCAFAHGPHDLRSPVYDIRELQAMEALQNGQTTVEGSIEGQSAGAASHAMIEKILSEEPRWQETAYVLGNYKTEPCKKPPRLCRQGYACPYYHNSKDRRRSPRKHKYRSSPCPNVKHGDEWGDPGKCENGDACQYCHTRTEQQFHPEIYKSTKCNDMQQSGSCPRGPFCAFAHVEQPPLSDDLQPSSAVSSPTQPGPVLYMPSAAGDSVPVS
Oligonucleotide,bound/input enrichment [ratio]
UCGCUGCUGGAUUUGCUGGAAUGCUCUGUGUGCCUGGAGCGCCUGGACACUACGGCCAAGGUGUUGCCAUGCCAGCACACCUUCUGCCGACGCUGUCUGGAGAGCAUCGUGUGCUCGCGC,0.143
GGUCGGAGGGACUUUGUCUACCCUUCCUCAACCCGAGACCCUAGUGCCUCUAACGGAGGGGGCAGCCCAGCCAGGAGGGAAGAGAAGAAGAGAAAGGCCGCCAGGCUCAAGUUUGACUUC,1.11
GCUGCAGGAAAAGAGAUUAUAUGGCAUGGGCGGACAAAAGAAGAACCAGCUCAUUACUGUAGCAUUUGUGAAGUGGAGGUUUUUGAUCUGCUUUUUGUCACUAAUGAGAGUAAUUCACGA,0.117
GUUAAUGAAGUUGUGGCAGGGAUAAAAGAAUACUUCAACGUAAUGUUGGGUACCCAGCUACUCUAUAAAUUUGAGAGACCACAGUAUGCUGAAAUUCUUGCAGAUCAUCCCGAUGCACCC,0.179
GGCCAGGAACAGUCUUCACGGGGACAAAGAAUUUUAUCUAUUCCAAUUUGGCCCCCAAACCUAGGUAUCUCACAGAACUGUGUGUAUGAGGUACAGCAGGUACCAAAAGUAGAAAAGACA,0.892
CAUUGAAGAUGAUGAUGAUGGAGAAUUAGCCCUGUGGUCUCCUGAAGUCAAGACUGUGGAGCUGGUGAAAGACUGCAAAGGCUUAGGAUUCAGUAUUUUGGAUUAUCAGGACCCCCUGGA,0.827
GAACCUGAGCCAGCAGAAGAGUACACUGAGCAAAGUGAAGUUGAAUCAACAGAGUAUGUAAAUAGACAGUUCAUGGCAGAAACACAGUUCACCAGUGGUGAAAAGGAGCAGGUAGAUGAG,0.342
GCUAGCCAGUCUGGAGCAACAUUCUUCAGCAUCUCUGCUUCAUCGUUGACUUCUAAGUGGGUAGGUGAGGGAGAAAAAAUGGUCCGUGCACUGUUUGCUGUUGCCAGGUGUCAGCAGCCA,0.155
ACUGUGACCUAAGAACAAAACUGUAACUGCAUUAGAAACCAUGAAAAAAUUAGAUAUUGUUUUGUGACUUUUAGACAGUGGUAAAUAUAGAACCAUGAAUUCUGGUCACAUUCCAUUUCU,14.6
UGCACUGAUAUCAUCCACCUCGAUGCCCAGCGGCUCCACUACUAUAGGGGCAAUUACAUGACCUUCAAAAAGAUGUACCAGCAGAAGCAGAAAGAACUGCUGAAACAGUAUGAGAAGCAA,0.243
CCAUGACCAGUGUGACUCAAAGCAAUGUGAUCUCCCUUGAUUCAAACGCACACCUCUGCCCUGCUGGAGAAGGUUUAGGGCCAUGUCUGAGAGAUUGGUCUUUCAUUGGGCAACGGGGGG,0.0585

# Sample 5
# Target: Interferon regulatory factor 5, full length, phosphomimetic (IRF5, Homo sapiens, UniProt Q13568-2, residues 1-514, K96S/S451D/S453D/S456D/S462D)
# Method: protein-binding microarray
# Molecule type: double-stranded DNA, one strand shown
# Matrix: in vitro
# Concentration: 250 nM
# Setting: 60-bp whole probe
# Together with: salmon DNA 0.4 mg/ml
# Relative to: random background probes
# Reading: higher = stronger binding
# Shared flanks, not repeated: GCCTAGCAC … GTCTTGATTCGCTTGACGCTGCTG
Oligonucleotide,log fluorescence [z-score]
TTAGATCTCGGTATCGATTAGTGCTAG,4.96
TTAGGGTTCGGTCTCGGTTAGTGCTAG,0.703
GACGATCTCACTCTCGAGACGTGCTAG,0.343
GACGAACTGGGGACTCGAGACGTGCTA,-0.511
TTAGATTTCGGGACTGGATTCGTGCTA,2.61
GACCATCTCATATAAATAGGCGTGCTA,0.106
TGGGCTACCGGGTCCCTCTTGTGCTAG,-0.768
CTCTACATGTGTTTAAGAATGTGCTAG,0.36
TCAACACTGGTTTTTACACTGTGCTAG,0.398
TTAGGACTGAGGTATCGGTTAGTGCTA,2.5
GGATGAGCAAGGGGGCCTCGGTGCTAG,-0.437
GACGGTTTCCTTCTCCAGACGTGCTAG,0.894
TTGGATATCAGTATCGATTAGTGCTAG,7.18
TTATAACTGAGTTTCGATTAGTGCTAG,9.71
GACGGACTGGACTTTCGGGAAGTGCTA,4.53
TTAGAACTGAGACCGGATTAGTGCTAG,-0.391
GACGATTTCGGTATCGGGACGTGCTAG,7.17
GACCATATCAGACTGGAGACGTGCTAG,-0.0515

# Sample 6
# Target: ABI1, truncated, D143A, DHFR fusion (Arabidopsis thaliana)
# Method: DHFR PCA, deep sequencing
# Matrix: yeast
# Setting: methotrexate growth selection, single substitutions
# Together with: (+)-ABA 0.11 µM
# Relative to: wild-type fitted maximum
# Reading: higher = stronger binding
# Starting sequence: PYL1, truncated, DHFR fusion (Arabidopsis thaliana); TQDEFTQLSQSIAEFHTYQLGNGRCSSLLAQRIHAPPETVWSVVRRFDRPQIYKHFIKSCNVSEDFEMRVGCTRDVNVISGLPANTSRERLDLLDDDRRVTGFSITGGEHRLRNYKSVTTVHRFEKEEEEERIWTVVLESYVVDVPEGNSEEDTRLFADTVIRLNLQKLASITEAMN
Variant,relative binding score [%]
T120S,65.8
T101E,-2.72
I172T,2.46
L94C,-6.08
P83W,8.31
R99Y,77.7
L93G,-5.26
D159R,-6.49
E4I,43.6
R24K,51.2
R88C,20.5
K126G,59.7
C60G,1.72
H110S,48.5
N77L,32.6
N22W,5.81
K116S,19.6
R24L,7.71
S9N,25.5
M176W,13.7
E4A,18.4
H122S,-2.9
I52G,2.68
R90E,2.7
K116L,-8.53
